Results collected from several papers.
Numbered parts are unrelated; each lists some results of a single study.

Sample 1
Target: Interferon regulatory factor 7, full length, phosphomimetic (IRF7, Homo sapiens, UniProt Q92985, residues 1-503, S471D/S472D/S475D/S476D/S477D/S483D/S484D/S487D)
Method: protein-binding microarray
Form: double-stranded DNA, one strand shown
Medium: in vitro
Concentration: 2200 nM top
Notes: 60-bp whole probe
With: salmon DNA 0.4 mg/ml
Reference: random background probes
Reading: higher = stronger binding
Constant ends, left off below: GCCTAGCAC … GTCTTGATTCGCTTGACGCTGCTG
Target sequence (chain): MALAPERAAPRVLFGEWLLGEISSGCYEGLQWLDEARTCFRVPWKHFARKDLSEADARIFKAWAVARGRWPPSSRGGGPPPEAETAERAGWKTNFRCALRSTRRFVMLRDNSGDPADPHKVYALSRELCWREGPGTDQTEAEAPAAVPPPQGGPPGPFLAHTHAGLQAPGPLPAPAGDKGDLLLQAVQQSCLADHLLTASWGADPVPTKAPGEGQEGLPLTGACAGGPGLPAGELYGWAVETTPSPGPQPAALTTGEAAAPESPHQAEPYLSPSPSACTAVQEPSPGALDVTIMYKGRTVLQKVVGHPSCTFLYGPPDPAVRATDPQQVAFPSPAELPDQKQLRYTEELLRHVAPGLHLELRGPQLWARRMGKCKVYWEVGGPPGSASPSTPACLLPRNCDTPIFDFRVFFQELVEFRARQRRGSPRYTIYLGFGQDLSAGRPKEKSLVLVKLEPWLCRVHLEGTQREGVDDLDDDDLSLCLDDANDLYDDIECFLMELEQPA
Under “fitted relative affinity”, `TTAGGACTGCTTATCGTTTAGTGCTAG` is recorded as 0.392 z-score.
Under “fitted relative affinity”, `TGTGGCTTAGTTTGTCAAAAAGTGCTA` is recorded as -0.293 z-score.
`GACGGACTTGACTTTCGGGACGTGCTA`: “fitted relative affinity” 2.52 z-score.
`GAGAGTAGCTTTCTGAGGGCGTGCTAG` — result for “fitted relative affinity”: -0.31 z-score.
For `TTAGGTCCCGGTTTCGGTTAGTGCTAG`, “fitted relative affinity” read 6.98 z-score.

Sample 2
Target: RNA binding protein fox-1 homolog 2, RRM domain, GST-SBP tag (RBFOX2, Homo sapiens, UniProt O43251-10, residues 100-194)
Method: RNA Bind-n-Seq
Form: RNA
Medium: in vitro
Concentration: 365 nM
Notes: natural RNA segment, single round, ends assumed
Reference: no-protein control
Reading: higher = stronger binding
Constant ends, left off below: GGGAGUUCUACAGUCCGACGAUC … UGGAAUUCUCGGGUGCCAA
Construct (chain): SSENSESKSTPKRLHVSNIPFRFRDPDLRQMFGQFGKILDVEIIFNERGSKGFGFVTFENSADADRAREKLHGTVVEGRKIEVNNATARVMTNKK
For `UAAUGCUUAGUGACUGUAUGAUAUUACUCAGAGUUCUGUUAGACUUUUUUUCUGCCUCGGUUCUUAUCGGCUAGGUUUGAGGUAUUUCACUGAGAACGUGAACUCGGUCU`, “RBNS enrichment (R)” read 0.495.
Under “RBNS enrichment (R)”, `GUCAAAAGCCCAGAAAGGCAAAAACCCAGCUUUCUUGUUUGGAGAGACAUGGGGCAUGUGUCUGCCAAUAGCCAGUUGUUCUCAGUGUGCACUAUGUAGGUCCCCAUCCA` is recorded as 1.04.
`GCUGUCUUUUCUACGAUAGAGAAUCUUUAUUUGUAAGGAAUGUUUCAGGCCUAGACAUACAUGAAACUUAUUUUUGAGGUUUUUGUGCUUUUGGUAUUUUCAUGUGUUAC` — result for “RBNS enrichment (R)”: 0.305.
`UUUGCUUUUGUUUGCUUUAGCUUGGUAACAGCGGUGAAUAGAGUGUAGUGUAAGUGGAGAACCAGGAUCCUGAGAUGAGCUUGAGCUUUAAAAACUUGGGACUAUACAUG`: “RBNS enrichment (R)” 0.461.
Under “RBNS enrichment (R)”, `CUUUUUUAGUUCUUAAAAAUUUAUUUUUAAGUUCUAAAAUAAAAUAAAAAUAAGUUCUUAAAAUUUAUUUUUUUCCUGAAUAAAUUGUAUUUGGUAAACUUCUGCCUACA` is recorded as 1.1.

Sample 3
Target: Histone acetyltransferase KAT6A, winged helix 2, GST fusion (KAT6A, Homo sapiens, UniProt Q92794, residues 85-181)
Method: protein binding microarray
Form: double-stranded DNA, one strand shown
Medium: in vitro
Concentration: not given
Notes: 8-mer, flanks averaged, mean of 2 arrays, mostly near background
Reference: not given
Reading: higher = stronger binding
Residues (chain): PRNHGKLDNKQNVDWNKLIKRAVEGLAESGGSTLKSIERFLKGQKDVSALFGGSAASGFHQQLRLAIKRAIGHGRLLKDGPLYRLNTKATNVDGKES
With `AAAATTCA` the E-score was 0.198.
For `GCATCCCC`, the E-score was 0.0972.
The E-score of `CAGCACCC` is reported as -0.131.
For `CGAAGACA`, the E-score was -0.0307.
`CTCCTTGA` gave an E-score of -0.16.
`ATACTACA` has an E-score of 0.0225.
`TATGATAA` has an E-score of 0.145.
With `AATCTCAA` the E-score was -0.0564.

Mixed results
For `PhoQ, residues 284 288 289 292 302 303 TASMAF`, the fold induction was 14.5 (PhoP, residues 12 14 15 18 19 LYFRQ (Escherichia coli, UniProt P23836); Sort-seq, measured: YFP reporter; E. coli; PhoQ-PhoP variant library, with: 10 µM Mg2+; reference: high Mg2+ state, higher = stronger signaling).

Repeated from above (sample 2):
`UUUGCUUUUGUUUGCUUUAGCUUGGUAACAGCGGUGAAUAGAGUGUAGUGUAAGUGGAGAACCAGGAUCCUGAGAUGAGCUUGAGCUUUAAAAACUUGGGACUAUACAUG`: “RBNS enrichment (R)” 0.461.
Under “RBNS enrichment (R)”, `CUUUUUUAGUUCUUAAAAAUUUAUUUUUAAGUUCUAAAAUAAAAUAAAAAUAAGUUCUUAAAAUUUAUUUUUUUCCUGAAUAAAUUGUAUUUGGUAAACUUCUGCCUACA` is recorded as 1.1.
